Assay results gathered from unrelated publications.
Compare with care: the assays were run in different laboratories. In brackets after ≈: the same amount, converted by molar mass.
Organism: Streptococcus pneumoniae

The MIC of `CN(C)c1cc(NC(=O)CNC(C)(C)C)c(O)c2c1C[C@H]1C[C@H]3[C@H](N(C)C)C(O)=C(C(N)=O)C(=O)[C@@]3(O)C(O)=C1C2=O` is reported as under 0.06 µg/mL (157E; 50% mouse serum).
`CC(=O)N[C@H]1[C@H]([C@H](O)[C@H](O)CO)OC(C(=O)O)=C[C@@H]1O` has an MBIC90 of over 50 µM (biofilm formation; no inhibition up to value).
The MIC of `Cc1ccc(C2SCC(=O)N2S(=O)(=O)c2ccc(C)cc2)cc1` (centres unmarked) is reported as over 256 µg/mL (broth microdilution; ATCC 49619).
`O=C(CCc1ccccc1)C[C@@H]1C[C@@H](c2ccccc2)c2c(cc(/C=C/c3ccccc3)oc2=O)O1` has an MBIC90 of over 50 µM (biofilm formation; no inhibition up to value).
`CN(C)c1cc(CNCC(C)(C)C)c(O)c2c1C[C@H]1C[C@H]3[C@H](N(C)C)C(O)=C(C(N)=O)C(=O)[C@@]3(O)C(O)=C1C2=O` has an MIC of under 0.06 µg/mL (157E; 50% mouse serum).
`CC[C@H]1OC(=O)[C@H](C)[C@@H](O[C@H]2C[C@@](C)(OC)[C@@H](O)[C@H](C)O2)[C@H](C)[C@@H](O[C@@H]2O[C@H](C)C[C@H](N(C)C)[C@H]2O)[C@](C)(O)C[C@@H](C)CN(C)[C@H](C)[C@@H](O)[C@]1(C)O` has a sensitive strains of 100% (community-acquired pneumonia patients; Fine score 70 or more).
The MIC of `Cc1ccc(S(=O)(=O)N2C(=O)CSC2c2ccc(F)cc2)cc1` (centres unmarked) is reported as 64 µg/mL (≈ 182 µM) (broth microdilution; ATCC 49619).
The sensitive strains of `CC[C@H]1OC(=O)[C@H](C)[C@@H](O[C@H]2C[C@@](C)(OC)[C@@H](O)[C@H](C)O2)[C@H](C)[C@@H](O[C@@H]2O[C@H](C)C[C@H](N(C)C)[C@H]2O)[C@](C)(O)C[C@@H](C)C(=O)[C@H](C)[C@@H](O)[C@]1(C)O` is reported as 100% (community-acquired pneumonia patients; Fine score below 70).
`CC(=O)NC[C@H]1CN(c2ccc(N3CCOCC3)c(F)c2)C(=O)O1` gave an MIC range of 0.25 to 1 µg/mL (≈ 0.741 to 2.96 µM) (broth microdilution; clinical isolates).
`CC1(C)S[C@@H]2[C@H](NC(=O)[C@H](N)c3ccc(O)cc3)C(=O)N2[C@H]1C(=O)O` gave a sensitive strains of 100% (community-acquired pneumonia patients; Fine score 70 or more).
`Cc1ccc(S(=O)(=O)N2C(=O)CSC2c2ccc([N+](=O)[O-])cc2)cc1` (centres unmarked) gave an MIC of 64 µg/mL (≈ 169 µM) (broth microdilution; ATCC 49619).
